Assay results collected from several papers.
Compare with care: the assays were run in different laboratories. Numbers after ± are the reported error.
Chain of UniProt Q15208 (whole entry, looked up): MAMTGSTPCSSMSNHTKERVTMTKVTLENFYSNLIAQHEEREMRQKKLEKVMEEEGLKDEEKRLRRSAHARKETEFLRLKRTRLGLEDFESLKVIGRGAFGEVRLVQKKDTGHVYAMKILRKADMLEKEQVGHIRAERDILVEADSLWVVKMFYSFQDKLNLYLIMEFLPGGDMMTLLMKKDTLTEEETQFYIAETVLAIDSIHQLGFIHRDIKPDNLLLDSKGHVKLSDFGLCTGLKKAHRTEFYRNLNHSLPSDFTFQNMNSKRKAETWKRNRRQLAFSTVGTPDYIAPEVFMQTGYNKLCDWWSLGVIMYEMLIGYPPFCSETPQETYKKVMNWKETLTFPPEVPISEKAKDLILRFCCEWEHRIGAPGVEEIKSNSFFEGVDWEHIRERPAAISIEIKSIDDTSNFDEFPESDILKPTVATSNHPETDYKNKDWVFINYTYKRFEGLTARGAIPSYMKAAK

| SMILES | tested on | assay | test system | conditions | scale | quantity | result |
| --- | --- | --- | --- | --- | --- | --- | --- |
| CN[C@H]1CC[C@@H](c2ccc(Cl)c(Cl)c2)c2ccccc21 | seizure ion channel panel | ion current, inhibitor | – | – | lowest across channels | lowest IC30 | 0.955 µM |
| Oc1ccccc1-c1n[nH]cc1-c1ccnc2ccccc12 | NPR1 (Candida albicans) | kinase binding, MIB/MS competition | Candida albicans lysate | 1 µM | relative to: DMSO | log2 fold change | 0.06 |
| NCCOP(=O)(O)OP(=O)(O)OC[C@H]1O[C@@H](n2ccc(N)nc2=O)[C@H](O)[C@@H]1O | – | binding, equilibrium dialysis LC-MS | – | 5 µM, thermostabilized A2AR-BRIL construct | relative to: no-protein control, direction not given | z-scored log2 fold change | 0.109 |
| Cc1n[nH]c2ccc(-c3cc(OC[C@@H](N)Cc4ccccc4)cnc3-c3ccoc3)cc12 | orf19.3456 kinase Candida albicans | MIB/MS competition binding | Candida albicans cell lysate | 1 µM | relative to: DMSO, lower = stronger binding | log2 fold change | -0.791 |
| N#CC[C@H](C1CCCC1)n1cc(-c2ncnc3[nH]ccc23)cn1 | NLRP3 inflammasome (mouse) | – | mouse BMDM | 10 µM | – | inhibition | 23.5% |
| COc1cnc(Nc2cccc(S(N)(=O)=O)c2)nc1N1CCN(c2ccccc2)C(=O)C1 | human FLT3 ITD/D835V | binding, KINOMEscan | – | 1000 nM | lower = stronger binding | percent of control | 61% |
| N=C(NCCCSC[C@H]1O[C@@H](n2cnc3c(NCCCc4ccccc4)ncnc32)[C@H](O)[C@@H]1O)NC1CCC1 | CamA DNA adenine methyltransferase (Clostridioides difficile) | enzyme activity, inhibitor, MTase-Glo luminescence (SAH) | – | 10 µM, 3 min, pH 7.5, 22 °C, added: SAM 40 µM | – | inhibition | < 10% |
| FC(F)(F)c1ccc(/C=C/c2nc(COc3ccc(CCCCn4ccnn4)cc3)co2)cc1 | NLRP3 inflammasome (mouse) | – | mouse BMDM | 10 µM | – | inhibition | -52.9% |
| N#Cc1ccc(COc2cccc(C3CCN(Cc4nc5ccc(C(=O)O)cc5n4C[C@@H]4CCO4)CC3)n2)c(F)c1 | chloride channel | – | – | – | – | IC50 | 3.5 µM |
| N=C(NCCCSC[C@H]1O[C@@H](n2cnc3c(NCCCc4ccccc4)ncnc32)[C@H](O)[C@@H]1O)NCC1CCC1 | CamA DNA adenine methyltransferase (Clostridioides difficile) | enzyme activity, inhibitor, MTase-Glo luminescence (SAH) | – | 10 µM, 3 min, pH 7.5, 22 °C, added: SAM 40 µM | – | inhibition | < 10% |
| CC(C)NCC(O)COc1cccc2ccccc12 (stereo not drawn) | seizure ion channel panel | ion current, inhibitor | – | – | lowest across channels | lowest IC30 | 5.24 µM |
| O=C1NC(=O)/C(=C/c2ccc(OCCNc3nc4c(cnn4C4CCCC4)c(=O)[nH]3)c(F)c2)S1 | PDE1B, PDE9 | – | – | – | relative to: PDE9 IC50 over PDE1B IC50 | selectivity ratio | 6 fold |
| Nc1ncc2c(n1)-c1c([nH]c3ccc(C#CC4CC4)cc13)CCCC2 | FLT3 ITD | scanMAX | – | 1 µM | relative to: control | remaining binding | 100% |
| CC1(C)NC(=O)N(c2ccc([N+](=O)[O-])c(C(F)(F)F)c2)C1=O | androgen receptor pathway | antagonist | – | concentration not given | direction not given | AUC antagonist score | 0.846 |
| CCCN1CCCC[C@H]1C(=O)Nc1c(C)cccc1C | seizure ion channel panel | ion current, inhibitor | – | – | lowest across channels | lowest IC30 | > 30 µM |
| O=C(Nc1cc(Oc2cc(F)c(NC(=O)C3(C(=O)Nc4ccc(F)cc4)CC3)cc2F)ccn1)C1CC1 | NLRP3 inflammasome (mouse) | – | mouse BMDM | 10 µM | – | inhibition | -15.6% |
| Cc1cnc(NC2CCOCC2)nc1-n1cnc(C(=O)NC(CN)c2cc(F)cc(Cl)c2)c1 (stereo not drawn) | casein kinase 1 (Saccharomyces cerevisiae) | enzyme activity, inhibitor, radiometric kinase | – | 1 µM | – | remaining activity | 92% |
| CC#C[C@]1(O)CC[C@H]2[C@@H]3CCC4=CC(=O)CCC4=C3[C@@H](c3ccc(N(C)C)cc3)C[C@@]21C | androgen receptor pathway | agonist | – | concentration not given | direction not given | AUC agonist score | 0.00133 |
| N#Cc1ccn2c(-c3ccncc3)c(-c3ccc(F)cc3)nc2c1 | orf19.3456 kinase Candida albicans | MIB/MS competition binding | Candida albicans cell lysate | 1 µM | relative to: DMSO, lower = stronger binding | log2 fold change | 0.157 |
| CCCN(CCC)CCc1cccc2c1CC(=O)N2 | seizure ion channel panel | ion current, inhibitor | – | – | lowest across channels | lowest IC30 | > 30 µM |
| CC(Nc1nc(N2CCCC2)nc2ccccc12)c1ccccc1 (stereo not drawn) | importin α/β1 | cMyc nuclear import, high content imaging | HeLa Kyoto reporter | 0.5 µM, 2 h | – | cells with nuclear reporter | 87.5% |
| N=C(NCCCO)NCCCSC[C@H]1O[C@@H](n2cnc3c(NCCCc4ccccc4)ncnc32)[C@H](O)[C@@H]1O | CamA DNA adenine methyltransferase (Clostridioides difficile) | enzyme activity, inhibitor, MTase-Glo luminescence (SAH) | – | 10 µM, 3 min, pH 7.5, 22 °C, added: SAM 40 µM | – | inhibition | < 10% |
| CN1CCN(CCOc2cc(OC3CCOCC3)c3c(Nc4c(Cl)ccc5c4OCO5)ncnc3c2)CC1 | NLRP3 inflammasome (mouse) | – | mouse BMDM | 10 µM | – | inhibition | 27.9% |
| C=CC(=O)N1CCC(C(=O)NCC(=O)N2CCN(c3nc(-c4cnc(N)nc4C(F)F)nc(N4CCOCC4)n3)CC2)CC1 | FLT3 ITD | KINOMEscan | – | 1 µM | relative to: vehicle | remaining binding | 97% |

| SMILES | tested on | assay | test system | conditions | scale | quantity | result |
| --- | --- | --- | --- | --- | --- | --- | --- |
| Cn1cnc2c(F)c(Nc3ccc(Br)cc3F)c(C(=O)NOCCO)cc21 | NLRP3 inflammasome (mouse) | – | mouse BMDM | 10 µM | – | inhibition | -12% |
| C[C@@H](c1ccc(-n2cnc3c(N)ncnc32)cc1)N1CCc2nn(C)c(Cc3ccccc3)c2C1=O | FLT3 ITD | KINOMEscan | – | 100 nM | relative to: DMSO | remaining binding | 86% |
| C=CC(=O)N1CCC(COCC(=O)N2CCN(c3nc(-c4cnc(N)nc4C(F)F)nc(N4CCOC[C@@H]4C)n3)CC2)CC1 | FLT3 ITD | KINOMEscan | – | 1 µM | – | remaining binding | 95% |
| Cn1cc(-c2ccc(-c3cncc(Cl)c3N3CCC4(CCNC4=O)CC3)cc2)cn1 | COLO 205 | gene expression, microarray, refers to: CA9 mRNA | – | concentration not given, 2 h | relative to: untreated cells | log2 fold change | -2.14 |
| CC(C)C[C@H](NC(=O)C[C@H](O)[C@H](CC(C)C)NC(=O)[C@H](Cc1c[nH]cn1)NC(=O)CNC(=O)[C@@H](NC(=O)[C@H](C)NC(=O)[C@H](Cc1c[nH]c2ccccc12)NC(=O)[C@H](CCC(N)=O)NC(=O)[C@@H](Cc1ccccc1)NC(=O)COCCOCCNC(=O)CCC(C(=O)O)N1CCN(CC(=O)O)CCN(CC(=O)O)CCN(CC(=O)O)CC1)C(C)C)C(N)=O (stereo partly drawn) [lutetium-177 labelled] | – | – | BALB/c nu/nu mice, lung | intravenous, 750 pmol, 1 h, added: PA 300 µg | – | tissue uptake | 0.5 ± 0.4 %ID/g |
| CC[C@@H]1[C@H](F)C(=O)N[C@@H]1COc1nccc2cc(C(N)=O)c(OC)cc12 | Serine/threonine-protein kinase 38 (STK38, Homo sapiens, UniProt Q15208) | ATP-site probe binding, ActivX profiling | THP-1 cell lysate | 0.01 mM, Lys1 site | – | inhibition | 1.5% |
| CNC(=O)[C@@H]1CC[C@@H](n2c(-c3ccc4cnccc4c3)nc3ccc(C(=O)NCc4cccc(C(N)=O)c4)cc32)C1 | human FLT3 ITD/D835V | binding, KINOMEscan | – | 1000 nM | lower = stronger binding | percent of control | 100% |
| CN1C[C@H](COc2nccc3c(NCc4ccco4)cc(Cl)nc23)OC1=O | human alpha-galactosidase A | activator | Fabry disease iPSC-cardiomyocytes | 10 µM | relative to: untreated | enzyme activity | 1.87 fold |
| CCN=C1C=CC(=C(c2ccc(N(CC)CC)cc2)c2ccc(N(CC)CC)cc2)c2ccccc21.Cl | androgen receptor pathway | agonist | – | concentration not given | direction not given | AUC agonist score | 0 |
| CC(C)Oc1ccc(-c2nn([C@@H](C)c3oc4ccc(F)cc4c(=O)c3-c3cccc(F)c3)c3ncnc(N)c23)cc1F | NLRP3 inflammasome (mouse) | – | mouse BMDM | 10 µM | – | inhibition | -19.1% |
| O=C1OC2(c3ccc(O)cc3Oc3cc(O)ccc32)c2ccccc21 | anti-compound antibody Fv | T-cell killing, split BiTE reconstitution | SK-BR-3 | – | – | EC50 | 0.2 µM |
| COc1cc(F)c(F)c(Nc2ccc(I)cc2F)c1NS(=O)(=O)C1(C[C@H](O)CO)CC1 | NLRP3 inflammasome (mouse) | – | mouse BMDM | 10 µM | – | inhibition | -37.2% |
| C#C[C@]1(O)CC[C@H]2[C@@H]3CCc4cc(O)ccc4[C@H]3CC[C@@]21C | androgen receptor pathway | agonist | – | concentration not given | direction not given | AUC agonist score | 0 |
| Clc1nc(NCc2ccco2)c2[nH]cnc2n1 | human alpha-galactosidase A | activator | Fabry disease iPSC-cardiomyocytes | 10 µM | relative to: untreated | enzyme activity | 1.43 fold |
| C1=C/COCc2cc(ccc2OCCN2CCCC2)Nc2nccc(n2)-c2cccc(c2)COC/1 | FLT3 ITD | kinase binding panel | – | concentration not given | – | remaining binding | 4.3% |
| N#Cc1ccc2c(-c3ccncc3)c(-c3ccc(F)cc3)nn2c1 | orf19.3456 kinase Candida albicans | MIB/MS competition binding | Candida albicans cell lysate | 10 µM | relative to: DMSO, lower = stronger binding | log2 fold change | 0.145 |
| Nc1nc2ccc(OC(F)(F)F)cc2s1 | seizure ion channel panel | ion current, inhibitor | – | – | lowest across channels | lowest IC30 | 12 µM |
| O=C(O)CO | – | binding, equilibrium dialysis LC-MS | – | 5 µM, thermostabilized A2AR-BRIL construct | relative to: no-protein control, direction not given | z-scored log2 fold change | -0.209 |
| c1coc(-c2n[nH]cc2-c2ccnc3ccccc23)c1 | TOR1 (Candida albicans) | kinase binding, MIB/MS competition | Candida albicans lysate | 1 µM | relative to: DMSO | log2 fold change | -0.18 |
| N=C(NCCCSC[C@H]1O[C@@H](n2cnc3c(NCCCc4ccccc4)ncnc32)[C@H](O)[C@@H]1O)NCC1CC1 | CamA DNA adenine methyltransferase (Clostridioides difficile) | enzyme activity, inhibitor, MTase-Glo luminescence (SAH) | – | 10 µM, 3 min, pH 7.5, 22 °C, added: SAM 40 µM | – | inhibition | < 10% |
| O=C1NC(=O)[C@@H](c2cn3c4c(cccc24)CCC3)[C@@H]1c1c[nH]c2ccccc12 | NLRP3 inflammasome (mouse) | – | mouse BMDM | 10 µM | – | inhibition | 91% |
| C[C@H](NCc1ccc(OCc2ccccc2F)cc1)C(N)=O | seizure ion channel panel | ion current, inhibitor | – | – | lowest across channels | lowest IC30 | 7.01 µM |
| c1ccc(-c2n[nH]cc2-c2ccnc3ccccc23)nc1 | orf19.3456 kinase Candida albicans | MIB/MS competition binding | Candida albicans cell lysate | 10 µM | relative to: DMSO, lower = stronger binding | log2 fold change | 1.04 |
| O=C(NCC1CCOCC1)c1n[nH]cc1NC(=O)c1c(F)cccc1F | human FLT3 ITD D835V | scanMAX | – | 1 µM | relative to: control | remaining binding | 82% |

Some of these lines once more:
| SMILES | tested on | assay | test system | conditions | scale | quantity | result |
| --- | --- | --- | --- | --- | --- | --- | --- |
| CC[C@@H]1[C@H](F)C(=O)N[C@@H]1COc1nccc2cc(C(N)=O)c(OC)cc12 | Serine/threonine-protein kinase 38 (STK38, Homo sapiens, UniProt Q15208) | ATP-site probe binding, ActivX profiling | THP-1 cell lysate | 0.01 mM, Lys1 site | – | inhibition | 1.5% |
| CNC(=O)[C@@H]1CC[C@@H](n2c(-c3ccc4cnccc4c3)nc3ccc(C(=O)NCc4cccc(C(N)=O)c4)cc32)C1 | human FLT3 ITD/D835V | binding, KINOMEscan | – | 1000 nM | lower = stronger binding | percent of control | 100% |
| CN1C[C@H](COc2nccc3c(NCc4ccco4)cc(Cl)nc23)OC1=O | human alpha-galactosidase A | activator | Fabry disease iPSC-cardiomyocytes | 10 µM | relative to: untreated | enzyme activity | 1.87 fold |
| CCN=C1C=CC(=C(c2ccc(N(CC)CC)cc2)c2ccc(N(CC)CC)cc2)c2ccccc21.Cl | androgen receptor pathway | agonist | – | concentration not given | direction not given | AUC agonist score | 0 |
| CC(C)Oc1ccc(-c2nn([C@@H](C)c3oc4ccc(F)cc4c(=O)c3-c3cccc(F)c3)c3ncnc(N)c23)cc1F | NLRP3 inflammasome (mouse) | – | mouse BMDM | 10 µM | – | inhibition | -19.1% |
| O=C1OC2(c3ccc(O)cc3Oc3cc(O)ccc32)c2ccccc21 | anti-compound antibody Fv | T-cell killing, split BiTE reconstitution | SK-BR-3 | – | – | EC50 | 0.2 µM |
| COc1cc(F)c(F)c(Nc2ccc(I)cc2F)c1NS(=O)(=O)C1(C[C@H](O)CO)CC1 | NLRP3 inflammasome (mouse) | – | mouse BMDM | 10 µM | – | inhibition | -37.2% |
